Assay results gathered from unrelated publications.
Lines come from different studies, so protocols differ. ± marks the error that the study gave.
folP: Dihydropteroate synthase (folP, Bacteria, UniProt P0AC13)
Sequence of UniProt P0AC13 (whole entry, looked up): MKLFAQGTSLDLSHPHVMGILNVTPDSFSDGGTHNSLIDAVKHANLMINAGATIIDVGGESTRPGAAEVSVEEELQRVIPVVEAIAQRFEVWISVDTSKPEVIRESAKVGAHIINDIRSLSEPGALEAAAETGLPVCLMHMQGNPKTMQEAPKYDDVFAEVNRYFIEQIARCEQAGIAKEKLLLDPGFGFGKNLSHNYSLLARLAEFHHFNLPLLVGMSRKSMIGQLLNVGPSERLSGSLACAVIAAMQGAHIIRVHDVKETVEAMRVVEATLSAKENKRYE
Sequence of UniProt Q7Z2W7 (whole entry, looked up): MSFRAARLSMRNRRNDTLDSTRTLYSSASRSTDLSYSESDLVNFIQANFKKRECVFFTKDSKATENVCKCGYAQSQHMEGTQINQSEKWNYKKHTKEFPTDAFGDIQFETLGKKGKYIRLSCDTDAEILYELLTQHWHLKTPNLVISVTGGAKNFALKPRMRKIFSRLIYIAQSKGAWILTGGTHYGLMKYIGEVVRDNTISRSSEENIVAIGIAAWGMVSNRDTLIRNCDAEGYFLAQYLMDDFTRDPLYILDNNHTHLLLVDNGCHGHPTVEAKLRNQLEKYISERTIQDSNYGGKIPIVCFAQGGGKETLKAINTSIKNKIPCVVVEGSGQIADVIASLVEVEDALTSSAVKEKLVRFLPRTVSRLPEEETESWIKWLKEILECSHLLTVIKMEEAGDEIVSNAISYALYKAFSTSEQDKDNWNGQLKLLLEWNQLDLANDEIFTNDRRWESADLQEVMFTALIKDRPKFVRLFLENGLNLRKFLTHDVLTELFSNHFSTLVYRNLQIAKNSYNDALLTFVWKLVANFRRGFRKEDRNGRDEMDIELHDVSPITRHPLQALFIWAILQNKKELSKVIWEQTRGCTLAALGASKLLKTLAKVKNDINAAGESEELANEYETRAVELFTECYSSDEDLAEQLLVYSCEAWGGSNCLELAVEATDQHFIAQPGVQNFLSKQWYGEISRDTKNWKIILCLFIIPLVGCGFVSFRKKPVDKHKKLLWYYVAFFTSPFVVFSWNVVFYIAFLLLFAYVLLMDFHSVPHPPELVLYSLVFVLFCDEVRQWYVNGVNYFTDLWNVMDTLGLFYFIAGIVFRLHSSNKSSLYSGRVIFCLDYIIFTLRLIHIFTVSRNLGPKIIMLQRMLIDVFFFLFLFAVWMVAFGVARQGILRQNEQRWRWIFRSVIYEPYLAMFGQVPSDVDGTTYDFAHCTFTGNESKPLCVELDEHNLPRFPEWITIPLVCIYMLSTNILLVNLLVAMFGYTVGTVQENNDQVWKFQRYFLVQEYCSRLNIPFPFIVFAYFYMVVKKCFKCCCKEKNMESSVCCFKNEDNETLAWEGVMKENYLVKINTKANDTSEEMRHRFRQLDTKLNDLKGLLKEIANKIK
Sequence of UniProt P51817 (whole entry, looked up): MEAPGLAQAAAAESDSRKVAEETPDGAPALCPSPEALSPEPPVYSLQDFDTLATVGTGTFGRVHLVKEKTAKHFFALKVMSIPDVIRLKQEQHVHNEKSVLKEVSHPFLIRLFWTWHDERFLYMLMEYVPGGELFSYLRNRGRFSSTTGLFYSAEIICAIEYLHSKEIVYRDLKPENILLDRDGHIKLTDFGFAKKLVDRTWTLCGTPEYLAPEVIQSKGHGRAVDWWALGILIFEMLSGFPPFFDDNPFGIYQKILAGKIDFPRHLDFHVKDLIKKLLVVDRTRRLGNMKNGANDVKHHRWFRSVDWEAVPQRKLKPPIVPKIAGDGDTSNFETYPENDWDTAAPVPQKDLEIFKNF
Sequence of UniProt Q9SZU7 (whole entry, unmodified, looked up): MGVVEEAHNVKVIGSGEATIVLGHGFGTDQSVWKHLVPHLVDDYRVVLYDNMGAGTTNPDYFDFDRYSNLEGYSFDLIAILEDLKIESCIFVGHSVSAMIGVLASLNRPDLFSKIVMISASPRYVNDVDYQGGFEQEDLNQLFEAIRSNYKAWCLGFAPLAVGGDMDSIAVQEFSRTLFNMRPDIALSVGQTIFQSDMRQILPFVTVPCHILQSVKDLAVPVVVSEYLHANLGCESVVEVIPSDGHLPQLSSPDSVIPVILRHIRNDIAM
Sequence of UniProt P02716 (whole entry, looked up): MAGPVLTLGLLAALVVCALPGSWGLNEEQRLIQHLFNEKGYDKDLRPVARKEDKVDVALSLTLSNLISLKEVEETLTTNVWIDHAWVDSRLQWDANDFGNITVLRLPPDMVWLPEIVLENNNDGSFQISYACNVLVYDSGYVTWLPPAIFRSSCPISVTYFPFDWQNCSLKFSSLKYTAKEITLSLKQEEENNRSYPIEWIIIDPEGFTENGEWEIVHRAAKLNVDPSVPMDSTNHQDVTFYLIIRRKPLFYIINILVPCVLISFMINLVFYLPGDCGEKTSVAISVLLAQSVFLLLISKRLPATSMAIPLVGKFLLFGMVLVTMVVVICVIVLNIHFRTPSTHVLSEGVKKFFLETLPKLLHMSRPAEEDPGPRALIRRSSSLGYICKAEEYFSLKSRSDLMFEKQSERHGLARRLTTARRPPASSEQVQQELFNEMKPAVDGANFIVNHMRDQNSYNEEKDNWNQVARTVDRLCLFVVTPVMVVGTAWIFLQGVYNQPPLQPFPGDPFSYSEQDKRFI
Sequence of UniProt P30048 (whole entry, looked up): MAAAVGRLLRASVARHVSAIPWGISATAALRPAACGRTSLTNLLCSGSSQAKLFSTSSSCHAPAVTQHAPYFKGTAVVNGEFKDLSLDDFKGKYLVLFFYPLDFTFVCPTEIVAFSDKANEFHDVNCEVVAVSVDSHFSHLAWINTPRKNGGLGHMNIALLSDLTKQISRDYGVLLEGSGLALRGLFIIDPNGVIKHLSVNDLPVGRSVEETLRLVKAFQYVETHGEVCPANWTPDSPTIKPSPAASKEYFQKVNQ
Sequence of UniProt P51686 (whole entry, looked up): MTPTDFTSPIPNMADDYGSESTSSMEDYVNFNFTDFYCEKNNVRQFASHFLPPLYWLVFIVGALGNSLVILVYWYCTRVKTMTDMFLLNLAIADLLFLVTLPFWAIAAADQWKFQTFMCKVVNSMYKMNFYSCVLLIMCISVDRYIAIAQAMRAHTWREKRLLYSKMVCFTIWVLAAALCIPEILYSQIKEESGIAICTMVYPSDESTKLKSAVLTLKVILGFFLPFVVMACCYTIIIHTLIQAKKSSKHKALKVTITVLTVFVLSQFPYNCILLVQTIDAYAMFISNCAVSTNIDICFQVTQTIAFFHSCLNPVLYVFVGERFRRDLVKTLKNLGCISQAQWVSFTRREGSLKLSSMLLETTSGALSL
Sequence of UniProt P08191 (whole entry, looked up): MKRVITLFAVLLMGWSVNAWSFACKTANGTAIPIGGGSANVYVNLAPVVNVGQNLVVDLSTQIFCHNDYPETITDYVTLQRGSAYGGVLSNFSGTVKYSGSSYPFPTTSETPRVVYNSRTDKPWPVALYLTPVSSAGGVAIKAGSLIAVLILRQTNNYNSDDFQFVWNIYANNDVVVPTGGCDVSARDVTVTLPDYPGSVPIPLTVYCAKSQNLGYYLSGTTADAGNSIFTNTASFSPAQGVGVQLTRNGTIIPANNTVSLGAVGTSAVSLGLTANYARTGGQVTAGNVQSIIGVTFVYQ
Sequence of UniProt P04756 (whole entry, looked up): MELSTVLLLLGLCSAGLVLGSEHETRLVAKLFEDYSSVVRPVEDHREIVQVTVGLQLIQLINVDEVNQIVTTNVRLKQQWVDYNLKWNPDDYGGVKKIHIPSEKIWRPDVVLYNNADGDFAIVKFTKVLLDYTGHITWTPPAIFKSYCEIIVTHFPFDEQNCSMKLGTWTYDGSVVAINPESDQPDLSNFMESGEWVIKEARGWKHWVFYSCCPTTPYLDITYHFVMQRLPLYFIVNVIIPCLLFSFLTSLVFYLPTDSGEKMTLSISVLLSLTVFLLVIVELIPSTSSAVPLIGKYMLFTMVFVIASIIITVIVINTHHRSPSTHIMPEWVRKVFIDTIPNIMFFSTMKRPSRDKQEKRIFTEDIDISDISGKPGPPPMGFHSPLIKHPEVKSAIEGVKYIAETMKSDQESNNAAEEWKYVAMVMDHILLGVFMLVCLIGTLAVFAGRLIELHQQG
Sequence of UniProt P20782 (whole entry, looked up): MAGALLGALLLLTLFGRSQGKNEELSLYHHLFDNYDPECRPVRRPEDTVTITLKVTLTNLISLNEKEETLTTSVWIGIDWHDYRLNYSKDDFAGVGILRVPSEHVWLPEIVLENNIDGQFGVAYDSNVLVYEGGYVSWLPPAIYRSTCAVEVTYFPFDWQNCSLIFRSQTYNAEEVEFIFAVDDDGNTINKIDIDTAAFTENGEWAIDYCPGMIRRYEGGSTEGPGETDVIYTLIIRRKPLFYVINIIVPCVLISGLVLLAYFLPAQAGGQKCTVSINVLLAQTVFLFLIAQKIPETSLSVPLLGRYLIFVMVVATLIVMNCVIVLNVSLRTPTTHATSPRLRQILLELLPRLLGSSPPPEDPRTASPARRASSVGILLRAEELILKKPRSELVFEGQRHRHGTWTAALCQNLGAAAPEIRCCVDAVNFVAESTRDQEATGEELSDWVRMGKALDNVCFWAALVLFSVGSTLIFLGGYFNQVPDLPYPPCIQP
Sequence of UniProt P39748 (whole entry, unmodified, looked up): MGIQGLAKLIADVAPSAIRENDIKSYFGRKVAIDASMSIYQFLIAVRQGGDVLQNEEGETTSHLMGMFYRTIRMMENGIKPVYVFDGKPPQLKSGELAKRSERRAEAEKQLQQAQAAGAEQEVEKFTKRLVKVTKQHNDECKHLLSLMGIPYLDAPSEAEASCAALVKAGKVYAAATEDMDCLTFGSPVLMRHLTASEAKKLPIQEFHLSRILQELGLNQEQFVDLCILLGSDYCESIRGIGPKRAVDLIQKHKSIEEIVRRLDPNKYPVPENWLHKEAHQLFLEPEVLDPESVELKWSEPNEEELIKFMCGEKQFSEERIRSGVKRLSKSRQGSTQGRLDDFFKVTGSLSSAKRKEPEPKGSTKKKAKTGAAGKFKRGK

For `O=C(NC1CCC2(CCCC2)CC1)c1ccc(-c2ccccc2)cc1`, the Kd was 36 ± 11 mol % (TRPM8 (Homo sapiens, UniProt Q7Z2W7); 19F NMR titration; LPPG micelles; 37 °C).
For `CCc1nc2cc3ccccc3cc2cc1C(=O)N[C@@H](CCCCN)C(=O)N[C@@H](C/C=C\C[C@H](NC(=O)[C@H](CCCCN)NC(=O)c1cc2cc3ccccc3cc2nc1CC)C(=O)N1CCC[C@H]1C(=O)NCCCN)C(=O)N1CCC[C@H]1C(=O)NCCCN`, the Kd was 0.504 µM ((CAG)10 RNA; SPR).
The Kd of `Cn1nnnc1SCc1nn(C)c2nc(N)[nH]c(=O)c2c1=O` is reported as 0.056 µM (folP; binding, SPR).
The Kd of `CCc1nc2cc3ccccc3cc2cc1C(=O)N1CCC[C@H]1C(=O)N[C@@H](C/C=C/C[C@H](NC(=O)[C@@H]1CCCN1C(=O)c1cc2cc3ccccc3cc2nc1CC)C(=O)N[C@@H](CCCCN)C(=O)NCCCN)C(=O)N[C@@H](CCCCN)C(=O)NCCCN` is reported as 0.045 µM ((CAG)10 RNA; SPR).
The Kd of `CCCCCCCO[C@H]1CO[C@H](CO)[C@@H](O)[C@H](O)[C@@H]1O` is reported as 0.168 µM (Type 1 fimbrin D-mannose specific adhesin, lectin domain (fimH, Escherichia coli K-12, UniProt P08191); binding, isothermal titration calorimetry; 15 °C, global fit, two runs).
`Cc1noc(C)c1CSc1nnc2nc(O)cc(N)n12` has a Kd of 0.24 µM (VSIR (Homo sapiens, UniProt Q9H7M9); binding, MST).
`Cc1n[nH]c2nc(N)[nH]c(=O)c2c1=O` has a Kd of 0.142 µM (folP; binding, SPR).
With `Cc1c[nH]c2nccc(-c3ccc(C(=O)N[C@@H]4c5c(F)cc(C(F)F)cc5C[C@@H]4O)cn3)c12` the Kd was 0.0165 µM (PRKX (Homo sapiens, UniProt P51817); binding, competition with immobilised ligand).
`CN(C)c1ccc2c(-c3ccc(C(=O)NCCOCCOCCOCCn4cc(COc5cc(C(=O)c6cc(Cl)ccc6NS(=O)(=O)c6ccc(C(C)(C)C)cc6)ccn5)nn4)cc3C(=O)[O-])c3ccc(=[N+](C)C)cc-3oc2c1` gave a Kd of 0.195 ± 0.0146 µM (CCR9 (Homo sapiens, UniProt P51686); binder, NanoBRET; HEK293T).
`Cn1ncc2cc(-c3cncc(Cl)c3N3CCC4(CCNC4=O)CC3)ccc21` gave a Kd of 0.015 µM (CCNC human; SILAC competition; LS174T-L5 lysate).
`NCCCC[C@H](NC(=O)[C@H](C/C=C/C[C@H](NC(=O)[C@@H]1CCCN1)C(=O)N[C@@H](CCCCN)C(=O)NCCCN)NC(=O)[C@@H]1CCCN1)C(=O)NCCCN` gave a Kd of 0.352 µM ((CAG)10 RNA; SPR).
`CCCCCCCC[C@@H]1NC(=O)[C@@H](CCCN)NC(=O)[C@@H](NC(=O)[C@@H](NC(=O)[C@@H](CCC(=O)O)NC(=O)[C@H](CC(C)C)NC(=O)[C@@H]2CSC([C@@H](N)[C@@H](C)CC)=N2)[C@@H](C)CC)CCCCNC(=O)[C@H](CC(N)=O)NC(=O)[C@@H](CC(=O)O)NC(=O)[C@H](Cc2c[nH]cn2)NC(=O)[C@@H](Cc2ccccc2)NC1=O` has a Kd of 0.021 ± 0.0114 µM (undecaprenyl pyrophosphate; binding, isothermal titration calorimetry; phosphatidylcholine lipid vesicles; pH 7.5, 25 °C, 0.3 mM zinc sulfate).
`COC1CN([C@H]2CC[C@H]([C@@]3(C)Oc4c(Cl)cc(C(=O)NCc5c(SC)cc(C)[nH]c5=O)c(C)c4O3)CC2)C1` — result for “log2 fold change”: 3.63 (RNA-seq, measured: TMTC1; human, whole blood; dose not given, 24 h; relative to: pretreatment baseline).
`Cc1cccc2c1N(C(=O)n1ccnn1)CC2` gave a Kd of 193 µM (KAI2 (Arabidopsis thaliana, UniProt Q9SZU7, F26A); ITC; F26A mutant, mean).
The Kd of `Cn1nc(CCC(=O)O)c(=O)c2c(=O)[nH]c(N)nc21` is reported as 0.00727 µM (folP; binding, SPR).
`O=c1cc(-c2ccccc2)oc2c(OCCCCN3CCCC3)c(OCc3ccccc3)cc(O)c12` has a Kd of 218 µM (TXNRD1 (Homo sapiens, UniProt Q16881, R371A); binding, microscale thermophoresis).
For `Cc1ncsc1-c1ccc(C(C)NC(=O)C2CC(O)CN2C(=O)C(NC(=O)CCCCCCCCCCN2CCCC(Nc3ncc(Cl)c(Nc4ccccc4S(=O)(=O)C(C)C)n3)C2)C(C)(C)C)cc1` (stereo not drawn), “log2 fold change” read -1.62 (22Rv1; RNA-seq, measured: RNF227 mRNA; concentration not given; relative to: DMSO).
The Kd of `C[N+]1(C)CCCC1` is reported as 2100 µM (Chrnd/Chrna1/Chrne (Mus musculus, UniProt P02716+P04756+P20782); single-channel kinetics; wild-type receptor).
The Kd of `Cc1ccc(C(=O)Nc2ccc(S(=O)(=O)O)c3cc(S(=O)(=O)O)cc(S(=O)(=O)O)c23)cc1NC(=O)c1cccc(NC(=O)Nc2cccc(C(=O)Nc3cc(C(=O)Nc4ccc(S(=O)(=O)O)c5cc(S(=O)(=O)O)cc(S(=O)(=O)O)c45)ccc3C)c2)c1` is reported as 7.25 µM (SLC25A13 (Homo sapiens, UniProt Q9UJS0); isothermal titration calorimetry; vesicles).
`Cn1nc(CCCC(=O)O)c(=O)c2c(=O)[nH]c(N)nc21` has a Kd of 0.0405 µM (folP; binding, SPR).
The Kd of `CC[C@H](C)[C@H](NC(=O)[C@@H](NC(=O)[C@H](CO)NC(=O)[C@@H](NC(=O)[C@@H]1CCCN1C(=O)[C@H](CC(C)C)NC(=O)[C@H](CCCNC(=N)N)NC(=O)[C@H](CO)NC(=O)[C@H](CC(N)=O)NC(=O)[C@H](C)N)[C@@H](C)O)[C@@H](C)CC)C(=O)O` is reported as over 1000 µM (NHERF1 (Homo sapiens, UniProt O14745); binding, FP).
The Kd of `CN(Cc1nn(C)c2nc(N)[nH]c(=O)c2c1=O)c1nnn[nH]1` is reported as 0.00153 µM (folP; binding, SPR).
`COc1ccc(C(N)=O)cn1` gave a Kd of 50.1 µM (Nicotinamide N-methyltransferase, SAM-bound (Rattus norvegicus, UniProt A0ABK0M0V0); substrate, SPR; 37 °C, together with: SAM).
With `C=CC(=O)N1C[C@H](C)N(c2nc(OC[C@@]34CCCN3C[C@H](F)C4)nc3c(F)c(-c4ccc(F)c5sc(N)c(C#N)c45)c(C(F)(F)F)cc23)C[C@H]1C` the Kd was 0.0014 µM (GTPase KRas, GDP-bound (KRAS, Homo sapiens, UniProt P01116); SPR).
For `O=c1c2ccccc2n(CC2CC2)c(=O)n1O`, the Kd was 0.194 µM (Flap endonuclease 1 (Homo sapiens, UniProt P39748); ITC; pH 7.5, 25 °C, together with: 8 mM Mg2+).
For `C/C=C(\C=O)[C@@H]1C[C@H]2c3[nH]c4ccccc4c3CCN2C=C1C(=O)OC`, the Kd was 0.608 µM (PRDX3 (Homo sapiens, UniProt P30048); binding, SPR).
For `CC1(C)C[C@@H](Nc2cccc(-c3sc(C(=O)O)c(OCC(=O)O)c3Cl)c2)CCN1S(=O)(=O)Cc1cccc(NC(=O)CN2CCC(c3ccc4c(c3)oc(=O)n4C3CCC(=O)NC3=O)CC2)c1` (stereo partly drawn), the Kd was 0.085 µM (PTPN1 (Homo sapiens, UniProt P18031); binding, BLI).

Some of these lines once more:
`Cn1ncc2cc(-c3cncc(Cl)c3N3CCC4(CCNC4=O)CC3)ccc21` gave a Kd of 0.015 µM (CCNC human; SILAC competition; LS174T-L5 lysate).
`COc1ccc(C(N)=O)cn1` gave a Kd of 50.1 µM (Nicotinamide N-methyltransferase, SAM-bound (Rattus norvegicus, UniProt A0ABK0M0V0); substrate, SPR; 37 °C, together with: SAM).
